Assay results gathered from unrelated publications.
Each line is one published result; not all experiments were run side by side. ± gives the spread as reported.

| Structure (SMILES) | test | system | conditions | how to read | endpoint | value |
| --- | --- | --- | --- | --- | --- | --- |
| COC[C@@H](NC(C)=O)C(=O)NCc1ccc(OCc2cccc(Cl)c2)cc1 | formalin test, phase I | mouse | ip, 5.0 mg/kg | reference: vehicle | licking time | 41% |
| COc1ccc(F)cc1S(=O)(=O)Nc1cnc2c(c1)C(=O)NCCO2 | item: pyrophosphate | C57BL/6J mouse | oral, 1 or 10 mg/kg, first 6 h | reference: vehicle | plasma PPi level | increased |
| COC[C@@H](NC(C)=O)C(=O)NCc1ccc(OCc2cccc(OC(F)(F)F)c2)cc1 | formalin test, phase I | mouse | ip, 12 mg/kg | reference: vehicle | licking time | 114% |
| Cc1cc(O)cc(C)c1CC(N)C(=O)NC1CCNc2c(F)cc(Cc3ccccc3)cc21 (centres unmarked) | warm water tail withdrawal | male C57BL/6 mice | intraperitoneal, 10 mg/kg |  | antinociception | inactive |
| CC(C)C[C@@H]1NC(=O)[C@@H](Cc2c[nH]c3ccccc23)NC(=O)[C@H](CCCN)NC(=O)[C@@H](CO)NC(=O)[C@H](CCC(N)=O)NC(=O)[C@@H](CCC(=O)O)NC(=O)[C@H](CO)NC(=O)[C@@H](Cc2c[nH]c3ccccc23)NC1=O | ELISA | human plasma | concentration not given |  | pre-beta HDL concentration | 58 ± 12 µg/mL |
| CC(C)C[C@H]1NC(=O)[C@H](NC(=O)CN)CSSC[C@H]2NC(=O)[C@H]3CSSC[C@H](C(=O)N[C@H](CC(N)=O)C(=O)N[C@H](Cc4ccccc4)C(=O)N[C@H](CO)C(=O)N[C@H](Cc4ccccc4)C(N)=O)NC(=O)[C@@H](CC(C)C)NC(=O)[C@@H](CCCCN)NC(=O)[C@@H](Cc4ccccc4)NC(=O)[C@@H](CC(C)C)NC(=O)[C@@H](CCCCN)NC(=O)[C@@H](CO)NC(=O)[C@@H](CSSC[C@@H](NC(=O)[C@@H](CCCCN)NC(=O)[C@@H](Cc4c[nH]c5ccccc45)NC(=O)[C@@H](Cc4c[nH]c5ccccc45)NC(=O)[C@@H](Cc4ccccc4)NC(=O)[C@@H](CCC(=O)O)NC1=O)C(=O)N[C@H](CC(N)=O)C(=O)N1CCC[C@@H]1C(=O)N[C@H](CC(N)=O)C(=O)N[C@H](CC(=O)O)C(=O)N[C@H](CC(=O)O)C(=O)N[C@H](CCCCN)C(=O)N3)NC(=O)[C@@H](CCCCN)NC(=O)[C@@H](CC(C)C)NC(=O)[C@@H](CCCCN)NC(=O)[C@H]1CCCN1C(=O)[C@@H](CCCNC(=N)N)NC2=O |  | D2.mdx mice, muscle | dose not given, six weeks |  | centrally nucleated fibres | no effect |
| CC[C@H](C)[C@H](NC(=O)[C@@H](NC(=O)[C@H](CC(=O)O)NC(C)=O)[C@@H](C)O)C(=O)N[C@@H](CCCNC(=N)N)C(=O)N[C@@H](CC(C)C)C(=O)N[C@@H](CC(C)C)C(=O)N[C@@H](Cc1ccccc1)C(=O)N[C@@H](CCC(N)=O)C(=O)N[C@@H](CC(C)C)C(=O)N[C@@H](CCSC)C(=O)N[C@@H](CCCNC(=N)N)C(=O)N1CCC[C@H]1C(=O)N1CCC[C@H]1C(=O)N[C@@H](CC(N)=O)C(=O)N[C@@H](CCSC)C(=O)N[C@H](C(=O)N1CCC[C@H]1C(=O)N[C@@H](C)C(=O)N[C@H](C(=O)N[C@@H](CC(N)=O)C(=O)N[C@@H](C)C(N)=O)C(C)C)[C@@H](C)O | item: HA-02 tetramer | antigen-experienced tetramer+ CD4 T cells, healthy adults, HLA-DRB1*0101 | dose not given |  | α4β7− CCR9− cells | 3.33% |
| CC[C@H](C)[C@@H]1NC(=O)[C@@H](N)CSSC[C@@H]2NC(=O)[C@@H]3CSSC[C@@H]4NC(=O)[C@H](Cc5ccccc5)NC(=O)CNC(=O)[C@H](C(C)C)NC(=O)[C@H](CC(C)C)NC(=O)[C@H](CSSC[C@H](NC(=O)[C@H](Cc5c[nH]c6ccccc56)NC(=O)CNC(=O)CNC(=O)[C@H](CO)NC(=O)[C@H](CO)NC1=O)C(=O)NCC(=O)N[C@@H](Cc1ccccc1)C(=O)N[C@@H](CC(=O)O)C(=O)N[C@@H](CC(C)C)C(=O)N[C@@H](Cc1c[nH]cn1)C(=O)NCC(=O)N3)NC(=O)CNC(=O)[C@H](CSSC[C@@H](C(=O)O)NC(=O)CNC(=O)[C@H]([C@@H](C)O)NC(=O)CNC(=O)[C@H](Cc1ccc(O)cc1)NC4=O)NC(=O)[C@H](CC(N)=O)NC(=O)CNC2=O | isometric tension | isolated rat aortic rings | concentration not given, added: phenylephrine 0.1 µM |  | contraction | decreased |
| CC[C@H](C)[C@H](NC(=O)[C@H](CCCNC(=N)N)NC(=O)[C@H](CCC(N)=O)NC(=O)[C@H](CC(=O)O)NC(=O)[C@H](CC(C)C)NC(=O)[C@H](CC(C)C)NC(=O)[C@H](CC(N)=O)NC(=O)[C@H](Cc1ccccc1)NC(=O)[C@H](CC(=O)O)NC(=O)[C@@H](NC(=O)[C@@H](NC(=O)[C@H](CC(N)=O)NC(=O)CNC(=O)[C@H](CO)NC(C)=O)C(C)C)[C@@H](C)CC)C(=O)N[C@H](C(=O)N[C@@H](Cc1c[nH]c2ccccc12)C(=O)N[C@@H](CCC(N)=O)C(=O)N[C@@H](CC(N)=O)C(=O)N[C@@H](Cc1c[nH]c2ccccc12)C(=O)N[C@@H](Cc1ccc(O)cc1)C(=O)N[C@@H](C)C(N)=O)[C@@H](C)CC | item: HA-51 tetramer | antigen-experienced tetramer+ CD4 T cells, healthy adults, HLA-DRB1*0101 | dose not given |  | α4β7− CCR9− cells | 26.9% |
| Cc1cc(O)cc(C)c1CC(N)C(=O)NC1CCNc2c(C)cc(Cc3ccccc3)cc21 (centres unmarked) | warm water tail withdrawal | male C57BL/6 mouse | ip, 10 mg/kg, 50 °C, cutoff 20 s |  | tail withdrawal latency | 20 s |
| O=C(O)CCn1c(=O)oc2cc(Cl)c(Cl)cc21 |  | rat, acute pancreatitis, serum | dose not given, 6 h |  | urea level | 10.7 ± 0.8 mmol/L |
| CCN(Cc1ccccc1)C(=O)CCc1nc(CN2CCN(C(=O)Cc3ccc(OC)c(OC)c3)CC2)no1 | current clamp | L4-L6 DRG neurons, rat CCI model | 3 µM, added: 500 pA current injection |  | action potential threshold | -7.14 ± 2.34 mV |
| CSCC[C@H](NC(=O)CNC(=O)[C@H](CC(=O)O)NC(=O)[C@@H](NC(=O)[C@@H](NC(=O)[C@@H](NC(=O)CNC(=O)[C@H](CCC(N)=O)NC(=O)[C@H](CCSC)NC(=O)[C@H](CC(=O)O)NC(=O)[C@H](C)NC(=O)[C@H](C)NC(=O)[C@@H](NC(=O)[C@H](CO)NC(=O)[C@@H](N)CC(C)C)[C@@H](C)O)C(C)C)C(C)C)[C@@H](C)O)C(=O)N[C@@H](C)C(=O)N[C@@H](CO)C(=O)NCC(=O)N[C@@H](CC(C)C)C(=O)N[C@@H](CC(=O)O)C(=O)N[C@@H](CCCCN)C(=O)N[C@@H](CC(=O)O)C(=O)N[C@@H](Cc1ccc(O)cc1)C(=O)N[C@@H](CC(C)C)C(=O)N[C@@H](CCCCN)C(=O)N1CCC[C@H]1C(=O)N[C@@H](CC(=O)O)C(=O)N[C@@H](CC(=O)O)C(=O)O |  | human | dose not given |  | complete response duration | 139 weeks |
| CC[C@H](C)[C@H](NC(=O)[C@H](C)NC(=O)CNC(=O)[C@@H](N)CCSC)C(=O)N[C@@H](C)C(=O)N[C@@H](CCCCN)C(=O)N[C@@H](CC(C)C)C(=O)N[C@H](C(=O)N[C@@H](C)C(=O)N[C@@H](CCCCN)C(=O)N[C@@H](Cc1ccccc1)C(=O)NCC(=O)N[C@@H](Cc1c[nH]c2ccccc12)C(=O)N1CCC[C@H]1C(=O)N[C@@H](Cc1ccccc1)C(=O)N[C@H](C(=O)N[C@@H](CCCCN)C(=O)N[C@@H](CCCCN)C(=O)N[C@@H](Cc1ccccc1)C(=O)N[C@@H](Cc1ccc(O)cc1)C(=O)N[C@@H](CCCCN)C(=O)N[C@@H](CCC(N)=O)C(=O)N[C@H](C(=O)N[C@@H](CCSC)C(=O)N[C@@H](CCC(N)=O)C(=O)N[C@@H](Cc1ccccc1)C(=O)N[C@H](C(=O)NCC(=O)N[C@@H](CCC(N)=O)C(=O)NCC(=O)N[C@@H](Cc1c[nH]c2ccccc12)C(=O)N[C@H](C(=O)N[C@H](C(=O)N[C@@H](CC(=O)O)C(=O)N[C@@H](CCC(N)=O)C(=O)N[C@H](C(=O)N[C@@H](CCC(=O)O)C(=O)N[C@@H](CCCCN)C(=O)N[C@@H](Cc1c[nH]c2ccccc12)C(=O)N[C@@H](CC(C)C)C(=O)N[C@@H](CCCCN)C(=O)N[C@@H](CCCNC(=N)N)C(=O)N[C@@H](Cc1c[nH]cn1)C(=O)O)[C@@H](C)CC)[C@@H](C)CC)[C@@H](C)O)[C@@H](C)CC)[C@@H](C)CC)[C@@H](C)CC)C(C)C |  | PG/PE 1:1 liposomes | MIC | reference: Triton X-100 | calcein release | 30.5 ± 1.3% |
